Published values collected from several papers.
Lines come from different studies, so protocols differ. Several values in a cell are separate wells, animals, samples, runs or records.
Target: Voltage-gated inwardly rectifying potassium channel KCNH2 (KCNH2, Homo sapiens, UniProt Q12809)

Compound | assay | test system | setting | scale | quantity | result
COc1cc2c(cc1-n1ccnc1)C[C@H]1[C@H]3CCCC[C@@]23CCN1C | ligand displacement, radioligand |  | 10 µM |  | inhibition | 39.5%
COc1ccc(F)cc1S(=O)(=O)Nc1cnc2c(c1)C(=O)NCCO2 | ligand displacement, radioligand |  | 10 µM |  | inhibition | -8%
Cn1ccc([C@H](CO)Nc2nc(N3C[C@@H]4C[C@H]3CO4)c3cc(-c4ccccc4)oc3n2)n1 | ion current, inhibitor |  |  |  | IC50 | 36.2 µM
CCCO[C@H]1[C@H](O)[C@@H](N)[C@@H](O[C@H]2[C@H](O[C@@H]3O[C@H](CO)[C@@H](O[C@H]4O[C@@H](CN)[C@@H](O)[C@H](O)[C@H]4N)[C@H]3O)[C@@H](O)[C@H](N)C[C@@H]2N)O[C@@H]1CO | ligand displacement, radioligand |  | 10 µM |  | binding vs control | 6%
CCN(CC)CCOc1ccc(-c2nnn(Cc3ccc(OC)cc3)c2N)cc1 | radioligand binding | CHO | 10 µM, human, added: radioligand 10000 nM |  | inhibition | 36.5%
CCc1nnc(-c2c(OC)cc(-c3cnc4cc(-c5cnn(C)c5)ccn34)cc2OC)o1 | ligand displacement, radioligand |  | 10 µM |  | inhibition | 3%
COc1cc2c(cc1NC(=O)c1cncn1C)C[C@H]1[C@H]3CCCC[C@@]23CCN1C | ligand displacement, radioligand |  | 10 µM |  | inhibition | 27%
O=C(O)c1ccc(-c2nc(-c3ccccc3Cl)c3sccn23)cc1 | radioligand binding |  | 10 µM | relative to: control | specific binding | 99.1% and 93%
C/C(=N\OCCCN1CCCCC1)c1ccc(C(F)(F)F)cc1 | ion current |  |  |  | IC50 | 2.45 µM
COc1ccc2c(c1)[C@]13CCCC[C@@H]1[C@H](C2)N(C)CC3 | ligand displacement, radioligand |  | 1 µM |  | inhibition | 13.3%
CN[C@@H]1[C@H](O)[C@H](NC)[C@H]2O[C@]3(O)[C@H](O[C@@H]2[C@H]1O)O[C@H](C)C[C@H]3NC(=O)Cc1ccc(Cl)cn1 |  |  | 10 µM |  | inhibition | 2%
